Measured values collected from several papers.
“And” joins repeats or separate records; there may be more than shown. ± marks the error that the study gave.

Structure (SMILES)	target or system	test	test system	conditions	how to read	measurement	value
O=C([O-])CN1CCN(CC(=O)[O-])CCN(C(CO)C(O)CO)CCN(CC(=O)[O-])CC1.[Dy+3] (stereo not drawn)	–	ICP-MS	cynomolgus monkey	58 days	baseline: dose	cumulative faecal excretion	0.4%
Cc1c(Cc2cccc(OC(C)C(=O)O)c2)c2ccc(C(=O)NC(C)c3ccc(C(C)(C)C)cc3)cc2n1C (mixture of isomers)	–	metabolic stability	mouse, liver microsomes	–	–	half-life	0.692 h
CN1CCC[C@]1(C)/C=C/S(=O)(=O)NC(=O)Nc1c2c(cc3c1CCC3)CC=C2	–	–	human, plasma	oral, 100 mg twice daily of parent drug, metabolite of dosed drug	baseline: day 14 over day 1	AUC(0-tau) accumulation ratio	1.8
O=Cc1cc(OCc2ccccc2)ccc1B(O)O	–	chemical stability, HPLC-MS	borate buffered saline	pH 10.2, no N-acetyl-lysine	–	degradation rate constant	0.1 h⁻¹
CNC(=O)C1CCCN(C(=O)C2CC3CCC2N3C(=O)[C@@H]2C[C@@H](O)CN2C(=O)NCc2cccc(Cl)c2F)C1 (mixture of isomers)	CYP3A4 (human)	inhibitor, time-dependent inhibition	–	0.617 µM, preincubated with NADPH, with: testosterone substrate	baseline: negative control	remaining activity	97.1%
C/C(N)=N/C(=N\S(=O)(=O)c1ccc(C(F)(F)F)cc1)N1C[C@H](c2ccccc2)C(c2ccc(Cl)cc2)=N1	–	–	male C57BL/6 mouse, liver	intravenous, 10 mg/kg	–	Cmax	27700 ng/mL
CN1CCC[C@]1(C)/C=C/S(=O)(=O)NC(=O)Nc1c2c(cc3c1CCC3O)CCC2 (stereo partly drawn)	–	–	human, plasma	oral, 100 mg twice daily of parent drug, day 1, metabolite of dosed drug	–	AUC(0-tau)	513 µg·h/mL
O=C(O)/C=C\c1cc2ccoc2cc1O[C@@H]1O[C@H](CO)[C@@H](O)[C@H](O)[C@H]1O	–	post-procedure stability	rat plasma	1000 ng/mL, 1 h, room temperature	–	accuracy	84.7%
CC(C)(C)[C@H](NC(=O)C(F)F)C(=O)N1C[C@H]2[C@@H]([C@H]1C(=O)N[C@H](C#N)C[C@@H]1CCCNC1=O)C2(C)C	–	–	rat hepatocytes	scaled to liver	–	intrinsic clearance	46.6 mL/min/kg
CSCC[C@H](N)C(=O)N[C@@H](CO)C(=O)N[C@H](C(=O)N[C@@H](C)C(=O)NCC(=O)N[C@@H](CC(C)C)C(=O)N[C@@H](CCCCN)C(=O)N[C@@H](CCCCN)C(=O)N[C@@H](CCC(N)=O)C(=O)N[C@@H](Cc1c[nH]c2ccccc12)C(=O)N[C@@H](Cc1c[nH]cn1)C(=O)N[C@@H](CCCCN)C(=O)N[C@@H](C)C(=O)N[C@H](C(=O)N[C@@H](CCC(N)=O)C(=O)N[C@@H](CCCCN)C(=O)N[C@H](C(=O)N[C@@H](CO)C(=O)N[C@@H](CCC(=O)O)C(=O)N[C@@H](CCCCN)C(=O)N[C@H](C(=O)NCC(=O)NCC(=O)N[C@@H](C)C(N)=O)C(C)C)C(C)C)[C@@H](C)O)C(C)C	–	circular dichroism	aqueous TFE	50 µM, pH 7.4, 20 °C	–	TFE midpoint	2.58 ± 0.03 M
COC1CN([C@H]2CC[C@H]([C@@]3(C)Oc4c(Cl)cc(C(=O)NCc5c(SC)cc(C)[nH]c5=O)c(C)c4O3)CC2)C1	–	RNA-seq, item: C3orf70 mouse homolog	mouse, HT-1376 xenograft, whole blood	dose not given	baseline: vehicle	log2 fold change	0.929
Cc1cc(Cl)cc(S(C)=NC#N)c1NC(=O)c1cc(Br)nn1-c1ncccc1Cl (stereo not drawn)	–	potentiometric	–	–	–	pKa	8.44
CCCCN1C(=O)c2cccc3c(NCCCN4CCOCC4)ccc(c23)C1=O	–	–	ethylene glycol	–	–	absorption maximum	447 nm
COc1ccc(Nc2nc(Nc3ccc(OCCOCCOCC[18F])cc3)ncc2Br)cc1	–	–	ICR mice, S180 tumour	intravenous, 370 kBq, 60 min	baseline: tumour over muscle	uptake ratio	1.54
O=C(Nc1cnccc1-c1ccc([18F])nc1)c1ccnc(NC(=O)C2CC2)c1	–	–	FVB/NJ mouse, both sexes, liver	intravenous, 25 min	–	SUV	9.75
Cc1noc(C)c1Cn1cc(N2C(=O)CN(Cc3cccc(OS(=O)(=O)O)c3)C2=O)cn1	–	–	Sprague-Dawley rat, male	oral, 10 mg/kg of parent drug, 12 h	–	plasma concentration	402 ng/mL
CCCCN1C(=O)c2cccc3c(NCCCCCCN4CCOCC4)ccc(c23)C1=O	–	–	chloroform	–	–	absorption maximum	429 nm
C=CC(=O)Nc1cccc(Cn2ncc3cnc(Nc4cnn(CCOC)c4)nc32)c1	PKN1 human	binding, KINOMEscan	–	100 nM	lower = stronger binding	percent of control	100%
Cc1ccc(OCC(=O)N(Cc2cccs2)c2ccn[nH]2)cc1	–	–	monkey plasma	750 ng/mL, 0.5 h, 37 °C, unit not given	baseline: time zero	remaining compound	113
C[C@@H]1O[C@@H](O[C@@H]2[C@@H](O)[C@H](O)[C@@H](CO)O[C@H]2c2c(O)cc(O)c3c(=O)cc(-c4ccc(O)cc4)oc23)[C@H](O)[C@H](O)[C@H]1O	–	–	Sprague-Dawley rat, bile	intravenous, 20 mg/kg, 8 h	baseline: dose	cumulative biliary excretion	28.2 ± 1.52%
C[C@H](CCC(=O)NCC(=O)O)[C@H]1CC[C@H]2[C@@H]3[C@H](O)C[C@@H]4C[C@H](OS(=O)(=O)O)CC[C@]4(C)[C@H]3CC[C@]12C	–	–	human, plasma	control	–	mean daily plasma concentration	0.088 ± 0.0153 µM
Cc1cc(NC(=O)c2ccc(Br)cc2)n[nH]1	–	–	octanol/buffer	67 µM, pH 7.4	–	logD	2.78
O=C1C2CC3CC1CC(C(=O)N1CCN(c4ccc([N+](=O)[O-])c5ncccc45)CC1)(C3)C2	Salmonella typhimurium	Ames test	TA98	0.13 µg/well, with S9	baseline: vehicle	revertant fold increase	1.1

Structure (SMILES)	target or system	test	test system	conditions	how to read	measurement	value
Cc1nc(N)nc2c1C(=O)N[C@@H](c1ccc(F)cc1-c1cccc(OCC[18F])n1)C2	–	ex vivo biodistribution	C57BL/6 mice, heart	intravenous, 1 MBq, 30 min	–	SUV	1.56 ± 0.07
CC1Cc2ccccc2N1C(=O)CN1CCN(Cc2ccccc2)CC1 (stereo not drawn)	–	–	female NMRI mice	intraperitoneal, 10 mg/kg free base, 60 min	baseline: brain over blood	tissue/plasma ratio	8.29
CCCC[C@H](NC(=O)CCCCCCCNC(=O)CN1CCN(CC(=O)O)CCN(CC(=O)O)CC1)C(=O)N[C@H]1CC(=O)NCCCC[C@@H](C(N)=O)NC(=O)[C@H](Cc2c[nH]c3ccccc23)NC(=O)[C@H](CCCNC(=N)N)NC(=O)[C@@H](Cc2ccccc2)NC(=O)[C@H](Cc2c[nH]cn2)NC1=O [fluorine-18 labelled]	–	–	C57 mice, B16/F10 melanoma, urine	intravenous, 0.37 MBq, 0.5 h	–	urinary excretion	53.5 ± 2.76%
Cc1nc(N)nc2c1C(=O)N[C@@H](c1ccc(F)cc1-c1cccc(O[11CH3])n1)C2	–	ex vivo biodistribution	healthy mice, lungs	60 min post-injection, baseline, vehicle pre-treatment	–	SUV	2.2 ± 0.4
COc1ccnc(C(=O)N[C@H]2COC(=O)[C@H](Cc3ccccc3)[C@@H](OC(=O)C(C)C)[C@H](C)OC2=O)c1O	–	–	cabbage	foliar, dose not given	–	residue level	0.015 mg/kg
C=C(NC(=O)c1csc(-c2nc3c(cc2O)-c2nc(cs2)C(=O)NC(C(C)O)C(=O)NC(=C(C)OC)c2nc(cs2)C(=O)NC2c4nc(cs4)C(=O)NC(COC(=O)c4c5c6c(cccc6n4O)COC(=O)C(OC4CC(C)(O)C(N(C)C)C(C)O4)C2OC5)c2nc-3cs2)n1)C(N)=O (stereo not drawn)	–	–	ICR mice, Streptococcus pneumoniae ATCC 49169 infected, immunocompromised, blood	intravenous, 8 mg/kg/day twice daily	–	MRT(0-t)	4.76 h
CC(C)(O)c1ncc([S@](N)(=O)=NC(=O)Nc2c3c(cc4c2CCC4)CCC3)s1	–	–	healthy human	oral, 30 mg single dose, capsule formulation	–	nervous system adverse events	17%
CCCCN1C(=O)c2cccc3c(NCCCCCN4CCOCC4)ccc(c23)C1=O	–	–	methanol	–	–	absorption maximum	443 nm
Cc1ncsc1-c1ccc(C(C)NC(=O)C2CC(O)CN2C(=O)C(NC(=O)CCCCCCCCCCN2CCCC(Nc3ncc(Cl)c(Nc4ccccc4S(=O)(=O)C(C)C)n3)C2)C(C)(C)C)cc1 (stereo not drawn)	22Rv1	RNA-seq, item: TMTC2 mRNA	–	concentration not given	baseline: DMSO	log2 fold change	-1.14
COc1ccc(N2CCOCC2)c2sc(NC(=O)c3ccnc(CN4CCCC4)c3)nc12	–	Henderson-Hasselbalch equation	–	–	–	intrinsic solubility	8 µg/mL
CCCCN1C(=O)c2cccc3c(NCCCCCCCCN4CCOCC4)ccc(c23)C1=O	–	–	DMF	–	–	absorption maximum	439 nm
Cc1nn(-c2cccc(N)c2)c(=O)c2cnc(Nc3ccc(N4CCNCC4)cc3)nc12	DYRK1A (Homo sapiens, UniProt Q13627)	enzyme activity, inhibitor	–	–	–	IC50	> 10 µM
CN(O)C(=O)CCC(=O)NCCCN(CCCCN(CCCNC(=O)CCC(=O)N(C)O)C(=O)CCC(=O)N(C)O)C(=O)CCC(=O)N(C)O.[89Zr]	–	radio-TLC	aqueous buffer	7 d, pH 7, 37 °C, 89Zr-labelled complex, with: DTPA 1000-fold excess	–	intact complex	91.9 ± 0.1%
CCCCN1C(=O)c2cccc3c(NCCCCN4CCOCC4)ccc(c23)C1=O	–	–	dichloromethane	–	–	absorption maximum	429 nm
COc1cccc(OC)c1-c1cc(C(=O)NC2(C(=O)O)C3CC4CC(C3)CC2C4)nn1-c1ccc(C(=O)N(C)CCOCCOCCN(C)C(=O)[C@H](CCCCNC(=O)[C@H](CC(C)C)NC(=O)C2OC2C(=O)O)NC(=O)CN2CCN(CC(=O)[O-])CCN(CC(=O)[O-])CCN(CC(=O)[O-])CC2)cc1C(C)C.[177Lu+3] (mixture of isomers)	–	–	mouse, HT-29 xenograft	168 h post injection, biodistribution	baseline: tumour over liver uptake	tumour-to-liver ratio	2.99
O=C(Nc1cnccc1-c1ccc([18F])cc1)c1ccnc(NC(=O)C2CC2)c1	–	PET imaging	FVB/NJ mice, both sexes, brain	intravenous, 120 min post-injection, P-gp inhibited, with: tariquidar 15 mg/kg iv, 2 h before	–	median SUV	0.22
CC(=O)[O-].O.O.[O-]c1ccc(Br)cc1C=NCCN1CCOCC1.[Zn+2]	–	FRAP	–	200 µM	–	ferric reducing power	45.8%
Cc1cc(-c2ccc(C(=O)[C@@H]3CCCC[C@H]3C(=O)Nc3cnn4c3C(=O)NCC4)cc2)[nH]n1	–	–	human, urine	oral, 200 mg, 0-168 h	baseline: dose	cumulative recovery of radioactivity	5.89%
Nc1ncc(-c2cc(-c3cnn(CC(F)(F)F)c3)ncc2F)nc1C(=O)NC1CNCC(F)C1 (stereo not drawn)	PIK3CG	KINOMEscan	–	1 µM	baseline: control	remaining binding	5.3%
C=C[C@]1(C)C[C@@H](OC(=O)CSc2ccc(NC(=O)c3ccco3)cc2)[C@]2(C)[C@H](C)CC[C@]3(CCC(=O)[C@H]32)[C@@H](C)[C@@H]1O	–	–	Mycoplasma gallisepticum-infected chickens, plasma	intramuscular, 80 mg/kg, 24 h	–	plasma concentration	17.5 ng/mL and 14 ng/mL and 12.5 ng/mL and 14.2 ng/mL and 12 ng/mL and 13.6 ng/mL and 15.4 ng/mL and 13.7 ng/mL
C[N+](C)(CCOCCOCCOCCNC(=S)Nc1ccc(C[C@H]2CN(CC(=O)[O-])CCN(CC(=O)[O-])CCN2CC(=O)[O-])cc1)C[c-]1cccc1.[64Cu+2].[Fe+2].c1cc[cH-]c1	–	–	nude mice, BxPC-3 xenograft, tumour	24 h, no pretargeting	–	tumour uptake	0.1 %ID/g
CN([O-])C(=O)CN1CCNCCN(CC(=O)N(C)[O-])CC1.[89Zr+4]	–	–	mouse, liver	intravenous, 4 h	–	tracer uptake	0.19 %ID/g

Some of these lines once more:
Structure (SMILES)	target or system	test	test system	conditions	how to read	measurement	value
O=C1C2CC3CC1CC(C(=O)N1CCN(c4ccc([N+](=O)[O-])c5ncccc45)CC1)(C3)C2	Salmonella typhimurium	Ames test	TA98	0.13 µg/well, with S9	baseline: vehicle	revertant fold increase	1.1
Cc1nc(N)nc2c1C(=O)N[C@@H](c1ccc(F)cc1-c1cccc(OCC[18F])n1)C2	–	ex vivo biodistribution	C57BL/6 mice, heart	intravenous, 1 MBq, 30 min	–	SUV	1.56 ± 0.07
CC1Cc2ccccc2N1C(=O)CN1CCN(Cc2ccccc2)CC1 (stereo not drawn)	–	–	female NMRI mice	intraperitoneal, 10 mg/kg free base, 60 min	baseline: brain over blood	tissue/plasma ratio	8.29
CCCC[C@H](NC(=O)CCCCCCCNC(=O)CN1CCN(CC(=O)O)CCN(CC(=O)O)CC1)C(=O)N[C@H]1CC(=O)NCCCC[C@@H](C(N)=O)NC(=O)[C@H](Cc2c[nH]c3ccccc23)NC(=O)[C@H](CCCNC(=N)N)NC(=O)[C@@H](Cc2ccccc2)NC(=O)[C@H](Cc2c[nH]cn2)NC1=O [fluorine-18 labelled]	–	–	C57 mice, B16/F10 melanoma, urine	intravenous, 0.37 MBq, 0.5 h	–	urinary excretion	53.5 ± 2.76%
Cc1nc(N)nc2c1C(=O)N[C@@H](c1ccc(F)cc1-c1cccc(O[11CH3])n1)C2	–	ex vivo biodistribution	healthy mice, lungs	60 min post-injection, baseline, vehicle pre-treatment	–	SUV	2.2 ± 0.4
COc1ccnc(C(=O)N[C@H]2COC(=O)[C@H](Cc3ccccc3)[C@@H](OC(=O)C(C)C)[C@H](C)OC2=O)c1O	–	–	cabbage	foliar, dose not given	–	residue level	0.015 mg/kg
C=C(NC(=O)c1csc(-c2nc3c(cc2O)-c2nc(cs2)C(=O)NC(C(C)O)C(=O)NC(=C(C)OC)c2nc(cs2)C(=O)NC2c4nc(cs4)C(=O)NC(COC(=O)c4c5c6c(cccc6n4O)COC(=O)C(OC4CC(C)(O)C(N(C)C)C(C)O4)C2OC5)c2nc-3cs2)n1)C(N)=O (stereo not drawn)	–	–	ICR mice, Streptococcus pneumoniae ATCC 49169 infected, immunocompromised, blood	intravenous, 8 mg/kg/day twice daily	–	MRT(0-t)	4.76 h
